{"data": "Results gathered from unrelated publications", "technique": "steady-state kinetics", "B1": "UGT1A9 (Homo sapiens, UniProt O60656); chain GKLLVVPMDGSHWFTMRSVVEKLILRGHEVVVVMPEVSWQLGRSLNCTVKTYSTSYTLEDLDREFKAFAHAQWKAQVRSIYSLLMGSYNDIFDLFFSNCRSLFKDKKLVEYLKESSFDAVFLDPFDNCGLIVAKYFSLPSVVFARGILCHYLEEGAQCPAPLSYVPRILLGFSDAMTFKERVRNHIMHLEEHLLCHRFFKNALEIASEILQTPVTEYDLYSHTSIWLLRTDFVLDYPKPVMPNMIFIGGINCHQGKPLPMEFEAYINASGEHGIVVFSLGSMVSEIPEKKAMAIADALGKIPQTVLWRYTGTRPSNLANNTILVKWLPQNDLLGHPMTRAFITHAGSHGVYESICNGVPMVMMPLFGDQMDNAKRMETKGAGVTLNVLEMTSEDLENALKAVINDKSYKENIMRLSSLHKDRPVEPLDLAVFWVEFVMRHKGAPHLRPAAHDLTWYQYHSLDVIGFLLAVVLTVAFITFKCCAYGYRKCLGKKGRVKKAHKSKTH", "B2": "enzyme (Pseudomonas putida, UniProt Q88P31); chain MAAISVEPCTFALFGALGDLALRKLFPALYQLDRANLLHPDTRLLALAREVGSAQEHLDSIEAHLRRHVPEADIEPAALGRFLARLNYQHLDFLQPEGYQALAEQLPGELPLIAYFATAAAVYGAICENLDKVGLAARTRVVLEKPIGHDLESSRRVNDAVARFFPESRVYRIDHYLGKETVQNLIALRFANSLFETQWNQNSISHVEITVAEKVGIEGRWGYFDKAGQLRDMIQNHLLQLLCLIAMDPPSELSADAIRDEKVKVLKALAPITGDGLSTSVVRGQYIAGYSEGKPVPGYLEEDNANAQSDTETFVALRADIRNWRWSGVPFYLRTGKRMPQKLSQIVIHFKETPHYIFAPEQRLQIGNKLIIRLQPDEGISLRVMTKEQGLDKGMQLRSGPLQLNFSDAWRSARIPDAYERLLLEVMRGNQNLFVRKDEIEYAWKWCDQLIAGWRNAGDAPKPYAAGSWGPMSSIALITRDGRAWYGDI", "B3": "enzyme (Rattus norvegicus, UniProt P06757); chain STAGKVIKCKAAVLWEPHKPFTIEDIEVAPPKAHEVRIKMVATGVCRSDDHAVSGSLFTPLPAVLGHEGAGIVESIGEGVTCVKPGDKVIPLFSPQCGKCRICKHPESNLCCQTKNLTQPKGALLDGTSRFSCRGKPIHHFISTSTFSQYTVVDDIAVAKIDAAAPLDKVCLIGCGFSTGYGSAVQVAKVTPGSTCAVFGLGGVGLSVVIGCKTAGAAKIIAVDINKDKFAKAKELGATDCINPQDYTKPIQEVLQEMTDGGVDFSFEVIGRLDTMTSALLSCHSACGVSVIVGVPPSAQSLSVNPMSLLLGRTWKGAIFGGFKSKDAVPKLVADFMAKKFPLEPLITHVLPFEKINEAFDLLRAGKSIRTVLTF", "B4": "putA N641A (Bradyrhizobium diazoefficiens, UniProt Q89E26); chain MPNIPPPFTAPYAPDDAEIAARLLPASHLSPPQEARIHRTATRLIEAIRKRDDRLGGVEDMLREFALSTKEGLALMVLAEALLRVPDARTADQFIEDKLGEGDFIHHETKSTAFLVNASAWALGLSARVIQPGETPDGTIGRLVKRLGAPAVRTATRQAMRLMGNHFVLGETIEQALERGKPRSGQKTRYSFDMLGEGARTAADARRYFDAYASAIETIGKAAGNHALPDRPGISVKLSALHPRFEAISRARVMVELVPQLLDLAQRAKAHDLNFTVDAEEADRLELSLDVIAATLADPSLKGWDGFGLAIQAYQKRASAVIDYVDALARAHDRKLMVRLVKGAYWDTEIKRAQERGLDGYPVFTRKAMTDLNYVACASKLLALRPRIFPQFATHNALTVATVLEMAEGSSGFEFQRLHGMGEALYEQLAKDHADIAYRTYAPVGSHRDLLAYLVRRLLENGANSSFVAQAADYRVPVPALLQRPADAIVRPQAAAHPRIPLPCDLFAPERRNSRGVEFGARTALDQLLTDVKAETGDLKPIADATPDQAHAAVAAARAGFAGWSRTPAGIRAAALEQAAHLLESRSAHFIALLQREGGKTLDDALSELREAADFCRYYAAQGRKLFGSETAMPGPTGESAALTMRGRGVFVAISPWNFPLAIFLGQVTAALMAGNSVVAKPAEQTPRIAREAVALLHEAGIPKSALYLVTGDGRIGAALTAHPDIAGVVFTGSTEVARSINRALAAKDGPIVPLIAETGGINAMIADATALPEQVADDVVTSAFRSAGQRCSALRLLFVQEDVADRMIEMVAGAARELKIGDPSDVATHVGPVIDVEAKQRLDAHIARMKTEARLHFAGPAPEGCFVAPHIFELTEAGQLTEEVFGPILHVVRYRPENLERVLRAIERTGYGLTLGVHSRIDDSIEAIIDRVQVGNIYVNRNMIGAVVGVQPFGGNGLSGTGPKAGGPHYLARFATEQTVTINTAAAGGNAALLAGEE", "B5": "LYS1 C205S/D319A (Saccharomyces cerevisiae, UniProt P38998); chain MAAVTLHLRAETKPLEARAALTPTTVKKLIAKGFKIYVEDSPQSTFNINEYRQAGAIIVPAGSWKTAPRDRIIIGLKEMPETDTFPLVHEHIQFAHCYKDQAGWQNVLMRFIKGHGTLYDLEFLENDQGRRVAAFGFYAGFAGAALGVRDWAFKQTHSDDEDLPAVSPYPNEKALVKDVTKDYKEALATGARKPTVLIIGALGRSGSGAIDLLHKVGIPDANILKWDIKETSRGGPFDEIPQADIFINCIYLSKPIAPFTNMEKLNNPNRRLRTVVDVSADTTNPHNPIPIYTVATVFNKPTVLVPTTAGPKLSVISIAHLPSLLPREASEFFSHDLLPSLELLPQRKTAPVWVRAKKLFDRHCARVKRSSRL", "B6": "protein (Cecembia lonarensis, UniProt K1KV82); chain QENKEKDRTPSSKHLTDNILQPKRSSDFMAFKYEYSTVDLYREFSESIMDKARSEVEILESVNRQGRYKPNVESLKLHEVPEWFEDAKLGIFLDWGPWSVPGYAPLKGAEASTGGSYPDWYEFLMDNLYKEYHDEVWGADFRRDDFLPLLTGENFNSEEYMLLAVNSGAKYFVPFTKHHAGWTMWESEFTKRNAVEMGPGRDIYKELIEAGKKYDMKMGFYFSVSEWEYPVIVDQNLSQWDPVKNLAIFQDALGQIPRATPLASYFPALHDRMISGKIPVKDYFADYMIPSFKEAVDKYDPDLVWYDGGWGSPVSISRTMETSAYFYNQAEGKKDVVINNRAGSSLSEDDLIKVRDLMDSGKRDEAMKIYLSGQQLGDYGTPEFTIGDVDIQSKWEVCRSISPAFGYNWQDDEASSLSGEELIKLFVDIVANNGNLLLVISPDGSGKLPDIQKDRLLELGDWMKVNAESIHNTRPWKVQKENDKFFTKSKDGKSLFVHCTNWPGENLIINTPIEEGIKGIKLLGSDINLQFTKASNGNLEIPIPKDFQNNPSLISKYVWTFKIDLN", "B7": "enzyme (Comamonas testosteroni, UniProt B7WQT1); chain MMTHEENELLCRVEGDAPMGRLMRRHWTPICLVEEVGEPDGTPVKARAFGEDLVVFRDSEGRVGVMDEYCPHRRASLVYGRNEEGGLRCLYHGWKMDVDGNVLEMASEPAASGMVDKVKHTAYPTQEWAGMVWAYMGPKETMPEFLPPAWAPTADTRVSIAKVLLPCNWAQILEGAIDSAHSSSLHSSDMVPARVDGAKATDKTWLRPSTDKAPRMQVQRTGYGFRYAALRRPLSNAAENDYVRSTVFVAPATALIPPNNLYNVANINVPMDDTNTAFYFIAWGHPSQTPETETWRKFLRQTVGVDLDQNYRPLRNEANKFWQDRNAMKAGNFTGITGFPNQDVAMWLTMGPIADRTHDRLGASDLAIVEFRKQMLDAVKAFEQGAPAIGTGVEAATPTVCSFQAIVPKTTDWRTYDAHYVWLDGQDRPEFEPSYSVKS", "B8": "Saccharopine reductase Y99F (Saccharomyces cerevisiae, UniProt P38999); chain MGKNVLLLGSGFVAQPVIDTLAANDDINVTVACRTLANAQALAKPSGSKAISLDVTDDSALDKVLADNDVVISLIPYTFHPNVVKSAIRTKTDVVTSSFISPALRELEPEIVKAGITVMNEIGLDPGIDHLYAVKTIDEVHRAGGKLKSFLSYCGGLPAPEDSDNPLGYKFSWSSRGVLLALRNSAKYWKDGKIETVSSEDLMATAKPYFIYPGYAFVCYPNRDSTLFKDLYHIPEAETVIRGTLRYQGFPEFVKALVDMGMLKDDANEIFSKPIAWNEALKQYLGAKSTSKEDLIASIDSKATWKDDEDRERILSGFAWLGLFSDAKITPRGNALDTLCARLEELMQYEDNERDMVVLQHKFGIEWADGTTETRTSTLVDYGKVGGYSSMAATVGYPVAIATKFVLDGTIKGPGLLAPYSPEINDPIMKELKDKYGIYLKEKTVA", "note": "Lines come from different studies, so protocols differ.", "sequence of UniProt Q99042 (whole entry, looked up)": "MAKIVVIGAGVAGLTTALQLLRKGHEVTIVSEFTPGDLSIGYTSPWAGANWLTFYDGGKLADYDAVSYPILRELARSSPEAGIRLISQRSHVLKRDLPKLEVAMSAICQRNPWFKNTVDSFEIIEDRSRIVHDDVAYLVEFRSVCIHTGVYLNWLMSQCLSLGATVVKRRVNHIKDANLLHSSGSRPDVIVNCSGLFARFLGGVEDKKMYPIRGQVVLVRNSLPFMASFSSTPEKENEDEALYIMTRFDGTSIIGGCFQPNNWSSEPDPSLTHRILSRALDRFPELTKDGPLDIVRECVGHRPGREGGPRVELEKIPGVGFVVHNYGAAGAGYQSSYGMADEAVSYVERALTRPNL", "sequence of UniProt Q3SY77 (whole entry, looked up)": "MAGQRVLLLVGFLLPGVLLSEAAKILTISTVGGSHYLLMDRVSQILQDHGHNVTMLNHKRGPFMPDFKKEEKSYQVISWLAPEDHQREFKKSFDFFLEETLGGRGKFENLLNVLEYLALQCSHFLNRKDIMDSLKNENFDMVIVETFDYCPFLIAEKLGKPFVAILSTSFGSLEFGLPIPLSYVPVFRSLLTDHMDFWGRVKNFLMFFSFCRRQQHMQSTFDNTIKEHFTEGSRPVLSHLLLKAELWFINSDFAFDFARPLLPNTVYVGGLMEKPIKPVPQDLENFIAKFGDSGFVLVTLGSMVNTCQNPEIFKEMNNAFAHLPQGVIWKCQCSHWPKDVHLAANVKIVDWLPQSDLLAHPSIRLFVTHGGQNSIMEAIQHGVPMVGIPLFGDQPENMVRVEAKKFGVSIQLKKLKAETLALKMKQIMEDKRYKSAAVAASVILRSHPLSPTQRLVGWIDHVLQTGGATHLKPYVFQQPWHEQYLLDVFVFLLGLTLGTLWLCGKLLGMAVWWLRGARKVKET"}
{"Molecule": "B1 (UGT1A9)", "substrate": "O=c1c(O)c(-c2ccccc2O)oc2ccccc12", "conditions": "pH 7.4, 37 °C", "Km [µM]": 0.67}
{"Molecule": "B2 (enzyme)", "substrate": "NC(=O)c1ccc[n+]([C@@H]2O[C@H](COP(=O)(O)OP(=O)(O)OC[C@H]3O[C@@H](n4cnc5c(N)ncnc54)[C@H](O)[C@@H]3O)[C@@H](O)[C@H]2O)c1", "conditions": "pH 8, 30 °C", "Km [µM]": 127}
{"Molecule": "UGT3A2 (Homo sapiens, UniProt Q3SY77)", "substrate": "O=c1ccn([C@@H]2O[C@H](CO[P@@](=O)(O)O[P@@](=O)(O)O[C@H]3O[C@H](CO)[C@@H](O)[C@H](O)[C@H]3O)[C@@H](O)[C@H]2O)c(=O)[nH]1", "conditions": "pH 7.4, 37 °C, not purified, together with: 1-OH-pyrene 16 µM, MgCl2 10 mM, alamethicin", "Km [µM]": 214}
{"Molecule": "B3 (enzyme)", "substrate": "OCc1ccccc1", "conditions": "pH 7.3, 37 °C", "Km [µM]": 36}
{"Molecule": "B4 (putA N641A)", "substrate": "O=C(O)[C@@H]1CCCN1", "conditions": "pH 8, 23 °C", "Km [µM]": 100000}
{"Molecule": "B5 (LYS1 C205S/D319A)", "substrate": "NC(=O)C1=CN([C@@H]2O[C@H](COP(=O)(O)OP(=O)(O)OC[C@H]3O[C@@H](n4cnc5c(N)ncnc54)[C@H](O)[C@@H]3O)[C@@H](O)[C@H]2O)C=CC1", "conditions": "pH 7.2, 25 °C, together with: Lys and α-Kg", "Km [µM]": 230}
{"Molecule": "DAO1 (Trigonopsis variabilis, UniProt Q99042)", "substrate": "Nc1ccc2nc3ccc(N)cc3[s+]c2c1", "conditions": "pH 8, 22 °C, apparent", "Km [µM]": 32}
{"Molecule": "B6 (protein)", "substrate": "O=[N+]([O-])c1ccc(O[C@@H]2OC[C@H](O)[C@@H](O)[C@@H]2O)cc1", "conditions": "pH 5.5, 35 °C, substrate inhibition", "Km [µM]": 7900}
{"Molecule": "B7 (enzyme)", "substrate": "O=C(O)c1ccc(C(=O)O)cc1", "conditions": "pH 8, 25 °C, apparent", "Km [µM]": 90}
{"Molecule": "B8 (Saccharopine reductase Y99F)", "substrate": "N[C@@H](CCCCN[C@@H](CCC(=O)O)C(=O)O)C(=O)O", "conditions": "pH 9, 25 °C, together with: saccharopine", "Km [µM]": 5600}
{"note": "For quick reference, copied from above:"}
{"Molecule": "DAO1 (Trigonopsis variabilis, UniProt Q99042)", "substrate": "Nc1ccc2nc3ccc(N)cc3[s+]c2c1", "conditions": "pH 8, 22 °C, apparent", "Km [µM]": 32}
{"Molecule": "B6 (protein)", "substrate": "O=[N+]([O-])c1ccc(O[C@@H]2OC[C@H](O)[C@@H](O)[C@@H]2O)cc1", "conditions": "pH 5.5, 35 °C, substrate inhibition", "Km [µM]": 7900}
